Assay results gathered from unrelated publications.
Every numbered part comes from another study and shows a few of its results, in no order.

Set 1
Target: Calcium/calmodulin-dependent protein kinase type II subunit alpha (CAMK2A, Homo sapiens, UniProt Q9UQM7)
UniProt Q9UQM7, sequence (whole entry, looked up): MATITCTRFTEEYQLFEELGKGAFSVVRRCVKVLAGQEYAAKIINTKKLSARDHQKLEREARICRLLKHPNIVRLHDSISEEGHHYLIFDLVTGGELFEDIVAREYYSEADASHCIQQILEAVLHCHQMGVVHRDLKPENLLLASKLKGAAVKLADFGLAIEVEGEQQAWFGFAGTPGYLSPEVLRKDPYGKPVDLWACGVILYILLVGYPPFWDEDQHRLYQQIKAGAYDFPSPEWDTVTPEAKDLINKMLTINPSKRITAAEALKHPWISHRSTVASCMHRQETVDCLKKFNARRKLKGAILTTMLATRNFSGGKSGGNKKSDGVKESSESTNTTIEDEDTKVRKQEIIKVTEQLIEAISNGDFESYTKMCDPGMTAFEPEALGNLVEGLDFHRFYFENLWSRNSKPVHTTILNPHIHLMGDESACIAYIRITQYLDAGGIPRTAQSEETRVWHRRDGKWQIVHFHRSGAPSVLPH
Effect on: enzyme activity
Mode: inhibitor
Tested at: 10 µM
Quantity: inhibition
O=C(O)CCC(=O)OC[C@@H](NC(=O)C(Cl)Cl)[C@H](O)c1ccc([N+](=O)[O-])cc1: 16%
O=c1oc2c(O)c(O)cc3c(=O)oc4c(O)c(O)cc1c4c23: -4%
O=C(NC[C@H]1CN(c2ccc(N3CCOCC3=O)cc2)C(=O)O1)c1ccc(Cl)s1: -2%
C[C@]12CCC3=C4CCC(=O)C=C4CC[C@H]3[C@@H]1CC[C@@]2(O)CC#N: -5%
O=C[C@H](O)[C@@H](O)[C@@H](CO)O[C@@H]1OC[C@@H](O)[C@H](O)[C@H]1O: 1%
CC(=O)OCc1ccccc1: -4%
CC(=O)Nc1ccc(CC(=O)O)cc1: -3%
CC(C)=CCC/C(C)=C/COc1c2occc2cc2ccc(=O)oc12: -20%
O=C(O)[C@H](O)[C@H](O)[C@@H](O)[C@H](O)[C@H](O)CO: -7%
CC(C)CCC[C@](C)(O)[C@H]1CC[C@H]2[C@@H]3CC=C4C[C@@H](O)CC[C@]4(C)[C@H]3CC[C@@]21C: 59%
CC[C@H](C)C(=O)O[C@H]1C[C@@H](C)C=C2C=C[C@H](C)[C@H](CC[C@@H]3C[C@@H](O)CC(=O)O3)[C@H]21: -7%
COC(=O)[C@]1(O)C[C@@H](O)[C@@H](O)[C@H](OC(=O)/C=C/c2ccc(O)c(O)c2)C1: 13%
CC(=O)OP(=O)(O)O: 10%
OCC(S)CS (centres unmarked): 4%
OCc1ccc(O[C@@H]2O[C@H](CO)[C@@H](O)[C@H](O)[C@H]2O)cc1: -3%

Set 2
Target: Serine/threonine-protein kinase pim-3 (PIM3, Homo sapiens, UniProt Q86V86)
Effect on: enzyme activity
Mode: inhibitor
Tested at: 0.5 µM
Relative to: control
Quantity: remaining activity
CN1CCN(c2ccc3nc(-c4c(N)c5c(F)cccc5[nH]c4=O)[nH]c3c2)CC1: 95.6%
CN(C)S(=O)(=O)c1ccc2c(c1)/C(=C/c1cc3c([nH]1)CCCC3)C(=O)N2: 117%
O=c1cc(N2CCOCC2)oc2c(-c3ccccc3)cccc12: 88.5%
O=C1NC(=O)c2c1c1c3ccccc3[nH]c1c1[nH]c3cc(Br)ccc3c21: 4.69%
N#Cc1cnc2cnc(NCc3cccnc3)cc2c1Nc1ccc(F)c(Cl)c1: 85%
O=C1Nc2ccccc2/C1=C\c1c(Cl)[nH]c2ccccc12: 100%
c1ccc2c(-c3ccncc3)c[nH]c2c1: 103%
COc1cccc(-c2cc(=O)c3ccccc3o2)c1N: 90.9%
O=C(c1cc2cc(O)ccc2[nH]1)c1cc2cc(O)ccc2[nH]1: 98.9%
c1ccc(-c2n[nH]c3c2oc2ccccc23)cc1: 117%
Oc1cccc(-c2nc(N3CCOCC3)c3oc4ncccc4c3n2)c1: 104%
O=C1Nc2ccc(Br)cc2/C1=C/c1cc2c([nH]1)CCCC2: 87.5%
CCCNC(=O)Nc1ccc(Oc2ncnc3cc(OC)c(OC)cc23)cc1Cl: 81.3%
O=C1Cc2c([nH]c3ccc(Br)cc23)-c2ccccc2N1: 84.6%
COc1ccc2c(c1)c(C1=C(c3c[nH]c4ccccc34)C(=O)NC1=O)cn2CCCN(C)C: 5.01%
CCCCc1c(-c2ccc(OC)cc2)[nH]c2nccnc12: 90.9%
Cc1cc(Nc2cc(N3CCN(C)CC3)nc(Sc3ccc(NC(=O)C4CC4)cc3)n2)[nH]n1: 101%
COc1ccc(COc2ccc(Cc3cnc(N)nc3N)cc2OC)cc1: 95.9%
Cc1ccc(S(=O)(=O)/C=C/C#N)cc1: 93.6%
O=C1NC(=O)c2c1c1c3ccccc3[nH]c1n1cncc21: 4.48%

Set 3
Target: 5-hydroxytryptamine receptor 6 (HTR6, Homo sapiens, UniProt P50406)
UniProt P50406, sequence (whole entry, looked up): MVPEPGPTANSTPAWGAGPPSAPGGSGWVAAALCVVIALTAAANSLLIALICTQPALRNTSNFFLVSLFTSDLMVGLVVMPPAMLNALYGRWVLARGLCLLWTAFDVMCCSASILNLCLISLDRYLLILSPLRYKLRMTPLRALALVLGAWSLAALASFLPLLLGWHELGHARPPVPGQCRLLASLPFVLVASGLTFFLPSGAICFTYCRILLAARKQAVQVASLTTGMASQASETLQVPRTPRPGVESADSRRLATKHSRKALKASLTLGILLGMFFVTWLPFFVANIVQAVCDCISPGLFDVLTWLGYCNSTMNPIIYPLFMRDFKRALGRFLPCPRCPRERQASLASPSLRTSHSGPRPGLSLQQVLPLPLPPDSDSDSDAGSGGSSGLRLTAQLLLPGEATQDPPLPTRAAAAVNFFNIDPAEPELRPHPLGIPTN
Effect on: ligand displacement
Tested at: 10 µM
Quantity: inhibition
O=C(NCCCC1CCCCC1)c1ccc(CNC(=O)c2cnn(-c3ccccc3)c2C(F)(F)F)cc1: -0.05%
O=C1NC(c2ccccn2)Sc2ccccc21 (centres unmarked): -15.9%
c1ccc(C2CCN(c3cnc4c(N5CCOCC5)nccn34)CC2)cc1: -7.87%
CN(C)CC#Cc1ccc(OCCCc2sc(N3CCc4cccc(C(=O)Nc5nc6ccccc6s5)c4C3)nc2C(=O)O)c(F)c1: -1.75%
Cc1ncc(-c2cc(Cl)ccc2F)cc1-n1c(=O)n(CC(N)=O)c2ccccc21: 14.1%
CN(C)C(=O)c1sc2nc(N3CCC(S(C)(=O)=O)CC3)cc(C(F)(F)F)c2c1N: 24.2%
CC1=C(C#N)C(c2ccc3[nH]nc(C)c3c2)C(C#N)=C(C)N1: 20.7%
CC[C@H](CC(=O)O)n1c(=O)c2ncccc2n(Cc2cn(C)c3cc(C)cc(C)c23)c1=O: 12.2%
COc1ccc2cc(OCC3(C(=O)O)CN(C(=O)c4ccc(F)cc4)C3)ccc2c1: -6.47%
CNC(=N)NCCC[C@H](NC(=O)[C@H](CC(C)C)NC(=O)NNC(=O)[C@H](Cc1ccccc1)NC(=O)[C@H](CO)NC(=O)[C@H](CC(N)=O)NC(=O)[C@@H](Cc1ccncc1)NC(=O)[C@H](N)Cc1ccc(O)cc1)C(=O)N[C@@H](Cc1ccccc1)C(N)=O: 4.93%
COc1cc(N[C@@H]2CCCC[C@]2(O)C(F)(F)F)ccc1F: -4.02%
O=C(Nc1ccc(Oc2ccc(F)cc2)cc1)N1CCc2ncccc2[C@H]1c1ccc(F)cc1: 16.9%
CCOc1ccc(S(=O)(=O)Nc2ccc(Cl)cc2C#Cc2cnc(C(=O)O)cc2OC)c2ncccc12: 25.9%
CN1CCN(c2cnc3c(C4CCN(C(=O)c5ccc(OC(F)(F)F)cc5N)CC4)ncnc3c2)CC1: -4.69%
CN([C@@H]1CCc2c(CC(=O)O)c3ccccc3n2C1)S(=O)(=O)c1ccc(F)cc1: -14.6%
COc1cc(C(=O)O)ncc1C#Cc1ccccc1NS(=O)(=O)c1cccc2c(N(C)C)ccnc12: 65.5%
CN1CCN(c2ccnc(NCCc3ccccc3)n2)CC1: 80.4%
O=S(=O)(NC1CCC(c2cc(F)ccc2F)(S(=O)(=O)c2ccc(Cl)cc2)CC1)C(F)(F)F (centres unmarked): 12.4%
CCC(F)(F)c1cc(N2CCC(S(C)(=O)=O)CC2)nc2sc(C(N)=O)c(N)c12: 8.77%

Set 4
Target: Beta-1 adrenergic receptor (ADRB1, Homo sapiens, UniProt P08588)
UniProt P08588, sequence (whole entry, looked up): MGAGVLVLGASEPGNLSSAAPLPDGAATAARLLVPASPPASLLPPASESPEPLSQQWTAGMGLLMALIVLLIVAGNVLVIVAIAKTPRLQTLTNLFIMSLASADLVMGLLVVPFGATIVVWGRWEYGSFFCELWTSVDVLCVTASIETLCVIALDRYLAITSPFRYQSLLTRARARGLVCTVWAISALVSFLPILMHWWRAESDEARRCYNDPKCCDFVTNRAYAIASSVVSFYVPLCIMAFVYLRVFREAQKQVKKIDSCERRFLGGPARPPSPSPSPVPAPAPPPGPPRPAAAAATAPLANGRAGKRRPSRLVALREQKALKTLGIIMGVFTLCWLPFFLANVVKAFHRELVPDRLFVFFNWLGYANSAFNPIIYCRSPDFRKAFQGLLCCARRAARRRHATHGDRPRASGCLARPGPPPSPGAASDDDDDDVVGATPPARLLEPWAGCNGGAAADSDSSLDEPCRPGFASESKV
Mode: agonist
Quantity: Emax
COc1ccccc1OCC(O)CNC(C)C (centres unmarked): 81.1%
COc1ccccc1N1CCN(C(=O)C[C@@H]2O[C@H](CNC(=O)c3ccccc3)[C@@H](O)[C@H]2O)CC1: 41.2%
Cc1cccc(OCC(O)CNC(C)C)c1 (centres unmarked): 62.7%
COc1ccccc1N1CCN(CC[C@@H]2CC[C@H](O)[C@@H](C(=O)Nc3ccccc3)O2)CC1: 91.5%
COc1ccccc1N1CCN(C(=O)C[C@@H]2O[C@H](CNC(=O)NC(C)C)[C@@H](O)[C@H]2O)CC1: 43.4%
COc1ccc(CCNCC(O)COc2cccc(C)c2)cc1OC (centres unmarked): 61.6%
CC(C)(Cc1ccc2ccccc2c1)NCC(O)COc1cccc(Cl)c1C#N (centres unmarked): 113%
CN(Cc1ccc2nonc2c1)Cc1ccccc1OCC(O)CN1CCCCC1 (centres unmarked): 71.9%
